Published values pooled from the literature.
Each numbered part is a random draw from the data of one study; scales do not carry over between parts.

Sample 1
Target: RING finger protein unkempt homolog, zinc fingers 1-6, GST-SBP tag (UNK, Homo sapiens, UniProt Q9C0B0, residues 30-357)
Method: RNA Bind-n-Seq
Molecule type: RNA
Sample: in vitro
Tested at: not given
Setting: RNA with constant flanks, human-mouse chimeric sites, ends assumed
Baseline: input RNA pool
Direction: higher = stronger binding
Construct (chain): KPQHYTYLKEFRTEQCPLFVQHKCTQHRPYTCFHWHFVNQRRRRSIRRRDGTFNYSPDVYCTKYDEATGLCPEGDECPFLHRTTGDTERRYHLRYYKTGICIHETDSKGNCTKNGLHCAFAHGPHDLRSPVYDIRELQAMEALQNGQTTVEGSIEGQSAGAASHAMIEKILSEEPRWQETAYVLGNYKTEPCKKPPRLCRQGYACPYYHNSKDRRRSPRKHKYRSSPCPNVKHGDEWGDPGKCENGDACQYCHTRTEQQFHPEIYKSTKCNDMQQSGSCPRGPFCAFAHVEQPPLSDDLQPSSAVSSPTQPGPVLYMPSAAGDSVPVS
Oligonucleotide	bound/input enrichment [ratio]
GGGAGUUCUACAGUCCGACGAUCAACAGAUUGUCUUUAAGCAUUCCAAGCGAGAAUGCUGGGGUGAUCAUUGUUGCCCAUGUGCCUUCUGUAAUAGAUGGAAUGCUGUUCAUCCUUGAUGCUUUCCUUCACUCCAGAAUUGUUCAACAGAGGAUUGAGCAUCA	0.0932
GGGAGUUCUACAGUCCGACGAUCGCGAACAGCCAUUAGGAAAUGCUGGUAAUUUCAGUCACUUGCUGAUGACUUCUGAUGUCCCAGCAAAUGUUGGCAUUGUUGACUGCUGAGAAGAUACUUCUGAGGACCCACGUCUAAGGUCAACAGAGGAUUGAGCAUCA	0.176
GGGAGUUCUACAGUCCGACGAUCGUAAUGUUUAUUCAUUUAACUUAUUUUUAUAGCUAGAUAAAUAUUGUUAGUCUUAGACAAUAGCUCACAUUUUUUGAGAAGCAUGCCCUCCCUGUCCAUUUGUCUUACAAUAACACUCAGCAACAGAGGAUUGAGCAUCA	9.16
GGGAGUUCUACAGUCCGACGAUCCGGAGCCCCUCCCUCUCACAGGCCCAAGAUAUAACCCACCAGUGCCUUUUGUCUUCCUGUCAGCUCUAAUCAAUCAUCCUGUCCUCUCACGCCCACACCAAGUGCCCAAAGUGGGGAGGGCAACAGAGGAUUGAGCAUCA	0.315

Sample 2
Target: Prothrombin, mature alpha-thrombin (F2, Homo sapiens, UniProt P00734)
Method: aptamer microarray, sandwich
Molecule type: DNA with 2'F-ANA
Sample: in vitro
Tested at: 200 nM
Setting: whole 15-mer aptamer, many near background
Added: Cy3 exosite-II aptamer, 400 nM
Direction: higher = stronger binding
Oligonucleotide: GGTTGGTGTGGTTGG
Modification	mean fluorescence intensity
2'F-ANA at 1 3 4 5 7 8 10 11 13 14 15	52.9 a.u.
2'F-ANA at 1 4 5 6 7 9 10 11 13 14	46.8 a.u.
2'F-ANA at 1 4 6 8 9 10 12 13 15	54 a.u.
2'F-ANA at 1 8 9 10 13	53.7 a.u.
2'F-ANA at 4 6 7 9 10 11 14	57 a.u.
2'F-ANA at 1 2 3 5 6 8 9 10 11 12	51 a.u.
2'F-ANA at 1 2 3 4 5 6 8 11 14 15	60.7 a.u.
2'F-ANA at 2 4 7 8 11 12 13 14	139 a.u.
2'F-ANA at 2 3 5 7 9 10 12 13	105 a.u.
2'F-ANA at 1 2 4 5 6 7 9 10 11 13 14	50.6 a.u.

Sample 3
Target: Sal-like protein 4, full length isoform B (SALL4, Homo sapiens, UniProt Q9UJQ4-2, residues 1-616)
Method: universal PBM
Molecule type: double-stranded DNA, one strand shown
Sample: in vitro
Tested at: not given
Setting: 8-mer, flanks averaged, mean of replicates
Direction: higher = stronger binding
Construct (chain): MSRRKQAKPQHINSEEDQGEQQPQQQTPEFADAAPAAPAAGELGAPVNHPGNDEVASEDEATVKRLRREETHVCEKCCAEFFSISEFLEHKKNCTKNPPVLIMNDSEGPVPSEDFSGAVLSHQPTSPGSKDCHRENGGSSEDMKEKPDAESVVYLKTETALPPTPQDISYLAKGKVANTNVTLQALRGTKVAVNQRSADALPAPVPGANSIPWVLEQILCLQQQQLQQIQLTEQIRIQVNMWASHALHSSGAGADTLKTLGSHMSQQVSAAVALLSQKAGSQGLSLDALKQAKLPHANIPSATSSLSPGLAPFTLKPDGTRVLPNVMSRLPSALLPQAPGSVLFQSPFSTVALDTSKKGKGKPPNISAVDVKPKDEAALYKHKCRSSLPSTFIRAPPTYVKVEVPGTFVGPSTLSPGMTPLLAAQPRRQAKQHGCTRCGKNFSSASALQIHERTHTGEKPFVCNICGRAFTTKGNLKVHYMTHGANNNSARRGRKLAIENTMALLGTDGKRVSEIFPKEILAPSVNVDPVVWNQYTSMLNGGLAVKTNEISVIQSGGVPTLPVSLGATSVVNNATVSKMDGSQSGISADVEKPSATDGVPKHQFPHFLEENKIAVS
Oligonucleotide	E-score
ATACCACA	0.126
CAATTTTA	0.357
TAGCGCTA	0.0566
TCCAGCGA	-0.0719
AGCTTCAC	-0.0353
ACCAAGTA	0.0161
AATGCATC	0.171
ACTCCACC	-0.053
AAGTGACA	0.189
CCAAAACG	-0.0564
ATACTTTC	0.213

Mixed results
Molecule	target	test	test system	conditions	scale	quantity	value
PhoQ, residues 284 288 289 292 302 303 ALASRC	PhoP, residues 12 14 15 18 19 LQHIR (Escherichia coli, UniProt P23836)	Sort-seq, refers to: YFP reporter	E. coli	PhoQ-PhoP variant library, added: 10 µM Mg2+	baseline: high Mg2+ state, higher = stronger signaling	fold induction	12.9

Excerpt of the above (sample 3):
Oligonucleotide	E-score
ATACTTTC	0.213
ATACCACA	0.126
CCAAAACG	-0.0564
ACTCCACC	-0.053
